# Measured values pooled from the literature.
# A part holds a random share of what one study measured. Substitutions count along the parent as printed.

# Block 1 — technique: RNA Bind-n-Seq; molecule type: RNA; sample: in vitro; concentration: not given; reference: input RNA pool; reading: higher = stronger binding
# Target: RING finger protein unkempt homolog, zinc fingers 1-6, GST-SBP tag (UNK, Homo sapiens, UniProt Q9C0B0, residues 30-357)
# Setting: RNA with constant flanks, human and mouse sites, ends assumed
# Construct (chain): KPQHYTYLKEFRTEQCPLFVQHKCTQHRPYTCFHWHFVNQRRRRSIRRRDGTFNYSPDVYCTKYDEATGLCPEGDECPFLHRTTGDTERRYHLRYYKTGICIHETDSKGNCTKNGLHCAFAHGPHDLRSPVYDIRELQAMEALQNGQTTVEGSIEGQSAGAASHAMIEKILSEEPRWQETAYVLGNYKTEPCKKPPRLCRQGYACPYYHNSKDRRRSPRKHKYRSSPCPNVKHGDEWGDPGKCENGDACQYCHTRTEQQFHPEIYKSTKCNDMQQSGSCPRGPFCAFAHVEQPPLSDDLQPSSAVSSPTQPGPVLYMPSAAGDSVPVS
Strand,bound/input enrichment
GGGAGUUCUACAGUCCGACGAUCUUAAAGAUCAGCAAUUUAAAGAAAAUUUUAAAAGGCAUCUUGGAUUACAAUCAUGAGAUUUUAGGACAGCAGAUUAAUGAUUUCACCCUUCCUGACGUGAACCUCAUUGGGGAGCAUUCGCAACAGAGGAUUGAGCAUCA,0.251 ratio
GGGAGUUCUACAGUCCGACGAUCAAAGACAAGGAGCAGGUGGGGAUGAUCAAAGAGAAAUACGAGCACCGGAUGCUACUGAAGCACAUGCCAUCCGAGUUUCAUCUCUUCCUGGACCACAUUGCCAGCCUCGACUACUUCACCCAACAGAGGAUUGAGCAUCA,0.0639 ratio
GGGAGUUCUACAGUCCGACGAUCGACAAAGCAGAAUUCUUCAGUUCUGAAAAUGUUAAAGUGUUUGAGUCAAUUAAUAUGGACACAAAUGACAUGUGGUUGAUGAUGAGGAAAGCUUACAAAUAUGCUUAUGAUCAAUACAGGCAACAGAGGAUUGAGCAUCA,0.104 ratio
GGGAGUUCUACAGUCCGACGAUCUCCGAUGAACAAGAAGAUGAGGAUGCUGUAGUCAACAGGAUAUCGUUGUUUCUGAGCACCUUCACUCUAGCCGUGUCAGCUGGCGCGGUUUUGCUUUUACCCUUCUCAAUCAUCAGCAAUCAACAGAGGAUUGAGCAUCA,0.0849 ratio
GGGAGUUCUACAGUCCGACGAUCCAAAGCUACCCUCUGAUGGGGUCCCCCUUGCUAAUAACAUCCAUCCUUCUGACCUAUGUGUACUUCAUCCUAUCGCUUGGGCCUCGAAUCAUGGCUAAUCGGAAGCCCUUCCAACUUCGACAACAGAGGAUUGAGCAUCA,0.321 ratio
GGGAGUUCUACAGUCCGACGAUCCUCAUGCAGUUGUGGUCAAUAUUGUGGUAAUCGCUAAUUGUACUGAUUGUUUAAGUGUGCAUUAGUUGUGUCUCCCCAGCUAGAUUGUAAGCUCCUGGAGGACAGGGACCACCUCUACAACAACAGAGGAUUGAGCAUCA,0.251 ratio
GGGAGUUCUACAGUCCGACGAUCCAGUGGCGUUUGGAGGAGACUCGAAACUGGAUGGCUUCUACAGGGAGCCAGGCCUCUGAUAUAGACGAGAUUUUUGGAUUCUUCAACGAUGGCGAACCUCCCACCAAAAAGCCCAGGAAGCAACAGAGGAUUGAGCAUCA,0.191 ratio
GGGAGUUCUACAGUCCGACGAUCUCUCUUUUUUCACAUUUCCUGUAAACAAUGCAUCUCUUUUUUUAAAAAAGAUUUUACUUUUAAGUACUGUUUUAACAGUGUGGCUAGACUAUAAAUGUACUUGCUGAAUUCAUCCAUUUCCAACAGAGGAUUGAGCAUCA,2.24 ratio
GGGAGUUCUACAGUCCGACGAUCGGGGGUGAUGGUCCUAUGUGUCGCCCAGUAAUUCUGUUGCCGGAAGAUACCCCCCCCUUCUUAGAGCUUAAAGGAUCACGCCAUCCUUGCAUUACGAAGACUUUUUUUGGAGAUGAUUUUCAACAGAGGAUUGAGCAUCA,0.44 ratio
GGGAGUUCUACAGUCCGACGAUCGCCCGCCUUUUUCUCUCACACUUUGGAUUUUUGUCCUUAGAAGCACUGAAGGAACCUGCAAAUAGUCGUCUACCUCCUCACCUUAUUGCACUUGAUUCCACGAUACCUGGAUUUUUUGAUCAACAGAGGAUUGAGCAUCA,0.537 ratio
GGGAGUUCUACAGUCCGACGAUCCCAUAGUAUGUGACUCUACAUAACAUACUGAAACUAUUUAUAUUUUCUUUUUUAAGGAUAUUUAGAAAUUUUGUGUAUUAUAUGGAAAAAGAAAAAAAGCUUAAGUCUGUAGUCUUUAUGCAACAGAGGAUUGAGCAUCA,1.84 ratio

# Block 2 — target: NFE2L2, bZIP domain (human); technique: DHFR protein complementation; sample: yeast; reference: wild-type JUN-FOS pair; reading: higher = stronger binding
# Setting: single substitutions, most at no-binding floor
# Starting sequence: JUN, bZIP domain (human); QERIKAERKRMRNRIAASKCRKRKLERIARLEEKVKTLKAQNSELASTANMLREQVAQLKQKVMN; partner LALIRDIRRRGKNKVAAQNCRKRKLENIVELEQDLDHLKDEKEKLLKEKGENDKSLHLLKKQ
Variant,binding fitness
I28Q,-1.47 natural log
Q55G,-1.48 natural log
A46H,-1.38 natural log
E54T,-1.24 natural log
E33L,-1.35 natural log
L52T,-1.51 natural log
K39G,-1.46 natural log
V35A,-1.27 natural log
M51H,-1.47 natural log
A57E,-1.16 natural log
A40E,-1.22 natural log
I28L,-1.47 natural log
S47L,-1.24 natural log
K34W,-1.12 natural log
R30S,-1.34 natural log
R53D,-1.53 natural log
R53V,-1.51 natural log

# Block 3 — target: CCNF, cyclin fold, Cln2 fusion (human); technique: yeast growth competition, sequencing; sample: yeast; setting: strong parent motif; reference: not given; reading: higher = stronger binding
# Starting sequence: CCP110 docking peptide (human); EKVKRRLDLDIDG
Variant,normalised enrichment score
V3A,4.82
R5A,0.495
D10A,5.05
D8A,5.79
E1A,8.1
R6A,2.81
D12A,6.37
R5K,4.01

# Block 4 — target: UBE2G2 UBC core domain (UniProt P60604); technique: yeast two-hybrid; sample: yeast; setting: mostly zero background; reference: not given; reading: higher = stronger interaction
# Chain of UniProt P60604 (whole entry, looked up): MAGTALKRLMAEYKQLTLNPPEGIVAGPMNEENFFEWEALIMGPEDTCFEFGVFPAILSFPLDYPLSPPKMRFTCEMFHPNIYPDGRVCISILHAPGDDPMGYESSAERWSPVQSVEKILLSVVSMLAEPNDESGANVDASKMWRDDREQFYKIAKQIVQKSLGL
# B1: MKRN2 RING domain (UniProt Q9H000); chain FAFQASQDKVCSICMEVILEKASASERRFGILSNCNHTYCLSCIRQWRCAKQFENPIIKSCPECRVISEFVIPSV
# B2: DEF8 RING domain (UniProt Q6ZN54); chain AGRLGCSLTEIHTLFAKHIKLDCERCQAKGFVCELCREGDVLFPFDSHTSVCADCSAVFHRDCYYDNSTTCPKCARLSLRK
# B3: MEX3B RING domain (UniProt Q6ZN04); chain SGLRRKGSRDCSVCFESEVIAALVPCGHNLFCMECANRICEKSEPECPVCHTAVTQAIRIF
# B4: ANAPC11 RING domain (UniProt Q9NYG5); chain GICRMAFNGCCPDCKVPGDDCPLVWGQCSHCFHMHCILKWLHAQQVQQHCPMCRQEWKFKE
# B5: RNF122 RING domain (UniProt Q9H9V4); chain AKKLQLYGQTCAVCLEDFKGKDELGVLPCQHAFHRKCLVKWLEVRCVCPMCNKPIASPSEAT
Molecule,lacZ reporter activity
B1 (MKRN2 RING domain),0
B2 (DEF8 RING domain),0
RYRQMEERITCPICIDSHIRLVFQCGHGACAPCGSALSACPICRQPIRDRIQIF (MIB2 RING domain (UniProt Q96AX9)),0
B3 (MEX3B RING domain),0
YCEMGSTFQLCKICAENDKDVKIEPCGHLMCTSCLTAWQESDGQGCPFCRCEIKGTEPII (CBLB RING domain (UniProt Q13191)),0
B4 (ANAPC11 RING domain),0
B5 (RNF122 RING domain),0
LGTKLEAKYLCSACRNVLRRPFQAQCGHRYCSFCLASILSSGPQNCAACVHEGIYEEGIS (TRAF2 RING domain (UniProt Q12933)),0

# Block 5 — technique: protein-binding microarray; molecule type: double-stranded DNA, one strand shown; sample: in vitro; concentration: 940 nM top; setting: 60-bp whole probe; with: salmon DNA 0.4 mg/ml; reference: random background probes; reading: higher = stronger binding; all sequences stand within: GCCTAGCAC … GTCTTGATTCGCTTGACGCTGCTG
# Target: Interferon regulatory factor 5, full length, phosphomimetic (IRF5, Homo sapiens, UniProt Q13568-2, residues 1-514, S451D/S453D/S456D/S462D)
Strand,fitted relative affinity
GACGATATCGGGACTGGAGAAGTGCTA,-0.15 z-score
GACGGTGTCCTTATCCTGACGTGCTAG,-0.0496 z-score
TTAGGTATCAACTTTCGGTTAGTGCTA,3.76 z-score
TCAGTTTTTCATTTTTTACTGTGCTAG,1.31 z-score
CACGGACTGGGGACTGGGGACGTGCTA,-0.469 z-score
TTAGATATCGGGAATGGATTAGTGCTA,-0.0495 z-score
TGTCATTTACATTTTAGTAGGTGCTAG,0.706 z-score
CCTTGTGTTACTTTCTACTTGTGCTAG,1.26 z-score
AAGTAAAATGCAAAGAGGAAGTGCTAG,-0.23 z-score
TTAGATCTCAGTTTCGATTTGTGCTAG,7.9 z-score
GAGGATCTCAGACTGGAGACGTGCTAG,-0.588 z-score
GACGGTATCGGGTATCGGGAAGTGCTA,5.23 z-score
TCACATTCACCTGTCGTACTGTGCTAG,0.714 z-score
TTATGACTGGGGACTGGGTTAGTGCTA,0.0753 z-score
TTAGGACTGGGGTTTCGGTAAGTGCTA,4.18 z-score
TTACATTCCCCATTGTGTTGGTGCTAG,0.591 z-score
TACGGTCTCCTACTGCTGACGTGCTAG,0.0161 z-score
GACGGTAACGGGACTGGGGACGTGCTA,-0.432 z-score
TTGTCTCCCCCATCTTGTTCCGTGCTA,1.06 z-score
CTAGGACTGCTTATCCTTTAGTGCTAG,-0.359 z-score
GTCGGTTTCGGGTTTCGGGACGTGCTA,11.1 z-score
TTAAATTTCGGGACTGGATTAGTGCTA,0.409 z-score
CCTGGCTCCATGGAATTTTTGTGCTAG,-0.543 z-score

# For quick reference, copied from above (block 4):
Molecule,lacZ reporter activity
B1 (MKRN2 RING domain),0
B2 (DEF8 RING domain),0
RYRQMEERITCPICIDSHIRLVFQCGHGACAPCGSALSACPICRQPIRDRIQIF (MIB2 RING domain (UniProt Q96AX9)),0
B3 (MEX3B RING domain),0
YCEMGSTFQLCKICAENDKDVKIEPCGHLMCTSCLTAWQESDGQGCPFCRCEIKGTEPII (CBLB RING domain (UniProt Q13191)),0
B4 (ANAPC11 RING domain),0
B5 (RNF122 RING domain),0
LGTKLEAKYLCSACRNVLRRPFQAQCGHRYCSFCLASILSSGPQNCAACVHEGIYEEGIS (TRAF2 RING domain (UniProt Q12933)),0
